Measurements gathered from unrelated publications.
Lines come from different studies, so protocols differ. ± gives the spread as reported.

SMILES	test	test system	setting	logP
Cc1c(NS(=O)(=O)c2cccc3nonc23)c(=O)n(-c2ccccc2)n1C		octanol/buffer	pH 11	-0.81
C=Cc1c(C)c2cc3nc(c4c5[nH]c(cc6nc(cc1[nH]2)C(C)=C6CC)c(C)c5C(=O)C4)[C@@H](CCC(=O)O)[C@@H]3C	shake flask	octanol/water 2:1		0.302
Cc1ccnc(NS(=O)(=O)c2ccc(NC(=O)c3cncc(Br)c3)cc2)n1		octanol/buffer	pH 11	-0.44
C[C@@H](NC(=O)c1ccccc1CCC(=O)NNC(=O)/C=C/C(=O)OCc1ncccn1)c1cccc2ccccc12				2.7
CN(C)C(=O)c1ncccc1O	shake-flask, potentiometric	1-octanol/water		< -0.5
C[C@@H](NC(=O)c1ccccc1CCC(=O)NNC(=O)/C=C/C(=O)OCC1CCCC1)c1cccc2ccccc12				4.8
O=C1Nc2ccc3ncsc3c2/C1=C/Nc1ccc2c(c1)CS(=O)(=O)C2		octanol/buffer, 40 mM buffer	pH 11	2.52
COC(=O)CNC(=O)c1nc(Cl)c2ccccc2c1O	shake-flask, potentiometric	1-octanol/water		3.3
C=Cc1c(C)c2cc3nc(c4c5[nH]c(cc6nc(cc1[nH]2)C(C)=C6CC)c(C)c5C(=O)C4)[C@@H](CCC(=O)OC)[C@@H]3C	shake flask	octanol/water 1:2		0.863
O=C(O)CNC(=O)c1nc(Cl)c2ccccc2c1O	shake-flask, potentiometric	1-octanol/water		4.1
O=C(CC1OCCN(Cc2ccccc2)C1=O)Nc1ccc2c(c1)OCCO2 (stereo not drawn)		octanol/buffer	pH 11, known kinase inactives set	3.67
CCCCCCCC/C=C\CCCCCCCC(=O)O.Cc1cc(/C=C/C#N)cc(C)c1Nc1ccnc(Nc2ccc(C#N)cc2)n1		octanol/water	room temperature	0.89 ± 0.07
NC(=O)c1ccc(C(=O)Nc2cc(C3CC3)[nH]n2)cc1		octanol/buffer, 40 mM buffer	pH 11	1.25
C[C@@H](NC(=O)c1ccccc1CCC(=O)NNC(=O)/C=C/C(=O)O)c1cccc2ccccc12				2.8
CCOC(=O)CNC(=O)c1ncccc1O	shake-flask, potentiometric	1-octanol/water		0.3

A few entries again:
SMILES	test	test system	setting	logP
NC(=O)c1ccc(C(=O)Nc2cc(C3CC3)[nH]n2)cc1		octanol/buffer, 40 mM buffer	pH 11	1.25
